Measured values from different studies.
Protocols differ between the studies behind these lines.
Organism: Escherichia coli

| SMILES | test | test system | conditions | how to read | MIC |
| --- | --- | --- | --- | --- | --- |
| CCn1cc(/C=C/c2sc3ccccc3[n+]2CC)c2ccccc21 | microbial growth, broth dilution | 780 |  |  | 16 µg/mL |
| C[n+]1ccc(/C=C2\Sc3ccccc3N2CCCN2CCCC2)c2ccccc21 | microbial growth, broth dilution | ATCC 8739, ATCC8739 |  |  | 4 µg/mL |
| Cc1[nH]c(=O)c(CNC(=O)c2ccc(C(F)(F)F)nc2)c2c1CCCC2 | microbial growth, agar dilution |  | clinical isolate |  | > 128 µg/mL |
| CC1C(=O)NC(=O)N1/N=C/c1ccc([N+](=O)[O-])o1 (centres unmarked) | microbial growth, broth dilution | ATCC25922 | 18 h |  | 6.25 µg/mL |
| COc1ccc2ccc3c(c2c1)C=[N+]1C2CCCCC2[N+]2=Cc4cccc(C)c4[O][Au-]21[O]3.F[P-](F)(F)(F)(F)F (centres unmarked) | bacterial growth, broth microdilution | carbapenem-resistant clinical isolate | 24 h |  | 20 µM |
| CC1OCC2OC(OC3C(N)CC(N)C(O)C3OC3OC(CO)C(OC4OC(CN)C(O)C(O)C4N)C3O)C(N)C(O)C2O1 (centres unmarked) | broth microdilution | clinical isolate AG 002 |  |  | 128 µg/mL |
| CC(C)C(O)C(NC(=O)[C@H](Cc1ccc(O)cc1)NC(=O)C(Cc1ccc(O)cc1)[N+](C)(C)C)C(=O)N[C@@H](C)C(=O)O (some centres unmarked) |  | ATCC 25922 |  |  | > 100 µM |
| CC(C)C[C@@H](NC(=O)[C@@H](CC(C)C)NC(=O)[C@@H](CCCCN)NC(=O)[C@@H](CCCCNC(=O)[C@@H](CC(C)C)NC(=O)[C@@H](CC(C)C)NC(=O)[C@@H](CCCCNC(=O)[C@@H](CC(C)C)NC(=O)[C@@H](CCCCN)NC(=O)[C@@H](CCCCNC(=O)[C@@H](CC(C)C)NC(=O)[C@H](N)CCCCN)NC(=O)[C@@H](CC(C)C)NC(=O)[C@H](N)CCCCN)NC(=O)[C@@H](CC(C)C)NC(=O)[C@@H](CCCCN)NC(=O)[C@@H](CCCCNC(=O)[C@@H](CC(C)C)NC(=O)[C@H](N)CCCCN)NC(=O)[C@@H](CC(C)C)NC(=O)[C@H](N)CCCCN)NC(=O)[C@@H](CC(C)C)NC(=O)[C@@H](CC(C)C)NC(=O)[C@@H](CCCCNC(=O)[C@@H](CC(C)C)NC(=O)[C@@H](CCCCN)NC(=O)[C@@H](CCCCNC(=O)[C@@H](CC(C)C)NC(=O)[C@H](N)CCCCN)NC(=O)[C@@H](CC(C)C)NC(=O)[C@H](N)CCCCN)NC(=O)[C@@H](CC(C)C)NC(=O)[C@@H](CCCCN)NC(=O)[C@@H](CCCCNC(=O)[C@@H](CC(C)C)NC(=O)[C@H](N)CCCCN)NC(=O)[C@@H](CC(C)C)NC(=O)[C@H](N)CCCCN)C(N)=O | broth microdilution | W3110 | 37 °C |  | 8 µg/mL |
| Oc1c(Br)ccc2cccnc12 | microbial growth, agar dilution | ATCC25922 |  |  | 35.7 µM |
| C[C@H]1COc2c(N3CCN(C)CC3)c(F)cc3c(=O)c(C(=O)O)cn1c23 | microbial growth, broth dilution | ATCC25922 |  |  | 50 µM |
| CC(=NNC(=N)N)c1nnn(-c2ccc(C#CC3(O)CCCCC3)cc2)c1C | microbial growth, broth dilution | BW25113 |  |  | > 64 µg/mL |
| CSCC[C@H](NC(=O)[C@H](CCCNC(=N)N)NC(=O)[C@H](Cc1c[nH]c2ccccc12)NC(=O)[C@H](CCC(N)=O)NC(=O)[C@H](Cc1c[nH]c2ccccc12)NC(=O)[C@H](CCCNC(=N)N)NC(=O)[C@@H](N)CCCNC(=N)N)C(=O)N[C@@H](CCCCN)C(=O)N[C@@H](CCCCN)C(=O)N[C@@H](CC(C)C)C(=O)NCC(=O)NCCCC[C@H](NC(=O)CNC(=O)[C@H](CC(C)C)NC(=O)[C@H](CCCCN)NC(=O)[C@H](CCCCN)NC(=O)[C@H](CCSC)NC(=O)[C@H](CCCNC(=N)N)NC(=O)[C@H](Cc1c[nH]c2ccccc12)NC(=O)[C@H](CCC(N)=O)NC(=O)[C@H](Cc1c[nH]c2ccccc12)NC(=O)[C@H](CCCNC(=N)N)NC(=O)[C@@H](N)CCCNC(=N)N)C(=O)NCCCCCC(=O)N[C@@H](CSSC[C@H](NC(=O)CCCCCNC(=O)[C@H](CCCCNC(=O)CNC(=O)[C@H](CC(C)C)NC(=O)[C@H](CCCCN)NC(=O)[C@H](CCCCN)NC(=O)[C@H](CCSC)NC(=O)[C@H](CCCNC(=N)N)NC(=O)[C@H](Cc1c[nH]c2ccccc12)NC(=O)[C@H](CCC(N)=O)NC(=O)[C@H](Cc1c[nH]c2ccccc12)NC(=O)[C@H](CCCNC(=N)N)NC(=O)[C@@H](N)CCCNC(=N)N)NC(=O)CNC(=O)[C@H](CC(C)C)NC(=O)[C@H](CCCCN)NC(=O)[C@H](CCCCN)NC(=O)[C@H](CCSC)NC(=O)[C@H](CCCNC(=N)N)NC(=O)[C@H](Cc1c[nH]c2ccccc12)NC(=O)[C@H](CCC(N)=O)NC(=O)[C@H](Cc1c[nH]c2ccccc12)NC(=O)[C@H](CCCNC(=N)N)NC(=O)[C@@H](N)CCCNC(=N)N)C(N)=O)C(N)=O | broth microdilution | ATCC 43827 | 24 h, 37 °C |  | 7 µM |
| COCO[C@H]1[C@H](O)[C@@H](N)[C@@H](O[C@H]2[C@H](O[C@@H]3O[C@H](CO)[C@@H](O[C@H]4O[C@@H](CN)[C@@H](O)[C@H](O)[C@H]4N)[C@H]3O)[C@@H](O)[C@H](N)C[C@@H]2N)O[C@@H]1CO | broth microdilution | clinical isolate AG 055 |  |  | 64 to 128 µg/mL |
| Cc1cc2[nH]c(C(=O)Nc3ccccc3C)c(CN3CCOCC3)c2s1 |  | ATCC 25922, LB broth | 20 h |  | > 200 µM |
| CN[C@@H]1[C@H](O)[C@H](NC)[C@H]2O[C@]3(O)[C@H](O[C@@H]2[C@H]1O)O[C@H](C)C[C@@]3(O)CNCCc1ccc(F)cc1 | microbial growth | K12 |  |  | 12.5 µg/mL |
| NCC1OC(OC2C(N)CC(N)C(OC3OC(CO)C(O)C(N)C3O)C2OCCCCn2cc(CNc3nc(NCc4cn(CCCCOC5C(OC6OC(CN)C(O)CC6N)C(N)CC(N)C5OC5OC(CO)C(O)C(N)C5O)nn4)nc(NCc4cn(CCCCOC5C(OC6OC(CN)C(O)CC6N)C(N)CC(N)C5OC5OC(CO)C(O)C(N)C5O)nn4)n3)nn2)C(N)CC1O (centres unmarked) | microbial growth, broth dilution | ATCC25922 |  |  | > 128 µg/mL |
| Cc1cc(O)cc2c1C(=O)c1c(cc3oc(=O)cc(-c4ccc(Cl)cc4)c3c1O)C2=O | microbial growth |  |  |  | 8 µg/mL |
| CC(C)=CCc1cc([C@@H]2CC(=O)c3ccc(O)c(CC=C(C)C)c3O2)c(O)c(CC=C(C)C)c1O |  | TISTR 780 |  |  | 128 µg/mL |
| CO[C@H]1[C@H](O)[C@@H](N)[C@@H](O[C@H]2[C@H](O[C@@H]3O[C@H](CO)[C@@H](O[C@H]4O[C@@H](CN)[C@@H](O)[C@H](O)[C@H]4N)[C@H]3O)[C@@H](O)[C@H](N)C[C@@H]2N)O[C@@H]1CO | broth microdilution | clinical isolate AG 055 |  |  | > 128 µg/mL |
| Cc1ccc2ccc3ccc(C)nc3c2n1.Cc1ccc2ccc3ccc(C)nc3c2n1.O.[Cl-].[Cl-].[Cl-].[Yb+3] |  |  |  |  | 31 µg/mL |
| CCCCc1ccc(N2C(=O)/C(=N\NC(=N)N)c3cc(OC)ccc32)cc1 | microbial growth, broth dilution |  | 18 h |  | 12 µg/mL |
| COc1ccc2ccc3c(c2c1)C=[N+]1C2CCCCC2[N+]2=Cc4ccccc4[O][Au-]21[O]3.F[P-](F)(F)(F)(F)F (centres unmarked) | bacterial growth, broth microdilution | carbapenem-resistant | 24 h |  | > 20 µM |
| CC[C@H](C)[C@H](N)C1=N[C@H](C(=O)N[C@@H](CC(C)C)C(=O)N[C@H](CCC(=O)O)C(=O)N[C@H](C(=O)N[C@H]2CCCCNC(=O)[C@H](CC(N)=O)NC(=O)[C@@H](CC(=O)O)NC(=O)[C@H](Cc3c[nH]cn3)NC(=O)[C@@H](Cc3ccccc3)NC(=O)[C@H]([C@@H](C)CC)NC(=O)[C@@H](CCCN)NC2=O)[C@@H](C)CC)CS1 | broth microdilution | ATCC 25922, LB medium | 18 h, 37 °C, together with: ZnSO4 0.3 mM |  | > 64 µg/mL |
| COc1ccc2c(c1)C=[N+]1C3CCCCC3[N+]3=Cc4c(ccc5ccc(OC)cc45)[O][Au-]13[O]2.F[P-](F)(F)(F)(F)F (centres unmarked) | bacterial growth, broth microdilution | carbapenem-resistant | 24 h |  | > 20 µM |
| COC1COC(=O)N1/N=C/c1ccc([N+](=O)[O-])o1 (centres unmarked) | microbial growth, broth dilution | ATCC25922 | 18 h |  | > 50 µg/mL |
| COc1ccc(-c2csc(N/N=C(\C)c3ccc4c(c3)sc3nc(=O)c(C#N)cn34)n2)cc1 | microbial growth, broth dilution |  |  |  | < 39 µg/mL |
| CCn1cc(C(=O)NCCNCCO)c(=O)c2cc(OC)c(OCc3cccc(Br)c3)cc21 |  | ATCC 25922 |  | ≥80% growth inhibition | < 0.25 µg/mL |
| COc1ccc2ccc3c(c2c1)C=[N+]1C2CCCCC2[N+]2=Cc4cccc(OC)c4[O][Au-]21[O]3.F[P-](F)(F)(F)(F)F (centres unmarked) | bacterial growth, broth microdilution | carbapenem-resistant clinical isolate | 24 h |  | 20 µM |
| CCCCCCCCCCN1C(=O)/C(=N\NC(=N)N)c2cc(C)ccc21 | microbial growth, broth dilution |  | 18 h |  | 24 µg/mL |

A few entries again:
| SMILES | test | test system | conditions | how to read | MIC |
| --- | --- | --- | --- | --- | --- |
| CC[C@H](C)[C@H](N)C1=N[C@H](C(=O)N[C@@H](CC(C)C)C(=O)N[C@H](CCC(=O)O)C(=O)N[C@H](C(=O)N[C@H]2CCCCNC(=O)[C@H](CC(N)=O)NC(=O)[C@@H](CC(=O)O)NC(=O)[C@H](Cc3c[nH]cn3)NC(=O)[C@@H](Cc3ccccc3)NC(=O)[C@H]([C@@H](C)CC)NC(=O)[C@@H](CCCN)NC2=O)[C@@H](C)CC)CS1 | broth microdilution | ATCC 25922, LB medium | 18 h, 37 °C, together with: ZnSO4 0.3 mM |  | > 64 µg/mL |
| COC1COC(=O)N1/N=C/c1ccc([N+](=O)[O-])o1 (centres unmarked) | microbial growth, broth dilution | ATCC25922 | 18 h |  | > 50 µg/mL |
| Cc1cc2[nH]c(C(=O)Nc3ccccc3C)c(CN3CCOCC3)c2s1 |  | ATCC 25922, LB broth | 20 h |  | > 200 µM |
